Measurements collected from several papers.
Parts stem from different laboratories: compare values within a part only.

Sample 1
Target: RING finger protein unkempt homolog, zinc fingers 1-6, GST-SBP tag (UNK, Homo sapiens, UniProt Q9C0B0, residues 30-357)
Technique: RNA Bind-n-Seq
Form: RNA
Medium: in vitro
Concentration: not given
Setting: RNA with constant flanks, human and mouse sites, ends assumed
Reference: input RNA pool
Direction: higher = stronger binding
Constant ends, left off below: GGGAGUUCUACAGUCCGACGAUC … CAACAGAGGAUUGAGCAUCA
Construct (chain): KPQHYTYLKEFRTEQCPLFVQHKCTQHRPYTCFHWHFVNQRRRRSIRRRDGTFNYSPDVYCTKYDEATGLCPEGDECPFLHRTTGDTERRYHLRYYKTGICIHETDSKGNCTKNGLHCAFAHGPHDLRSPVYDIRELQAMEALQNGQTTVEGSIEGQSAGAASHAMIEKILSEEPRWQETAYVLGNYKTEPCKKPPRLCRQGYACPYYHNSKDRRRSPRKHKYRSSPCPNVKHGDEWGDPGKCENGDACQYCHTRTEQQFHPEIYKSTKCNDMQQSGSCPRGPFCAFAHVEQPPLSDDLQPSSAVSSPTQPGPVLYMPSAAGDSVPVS
Oligonucleotide	bound/input enrichment
AUUUGGAAGAGUACCUGAGAUUGGUGAUAUUCUGGGCACUAAAUGAAGGUGUUUGUCGACAGUUUGACUCAUUCAGAGAUGGAUUUGAAUCGGUCUUCCCGCUCUGCCAUCUUCAGUACU	0.0531 ratio
UUUAUUUAUGUCUUAUUUAUGGUUGAGGAAUUCAGAAAAGAGCCAGUGGAAAACAUGGAUGAUGUCAUCUACUAUGUGAAUGGCACUUACCGCCUGCUGGAGUUUCUUGUGGCCCUCUGU	0.476 ratio
CUUCUCAGCAUGGGGAAAUAACAGUUCUCAGGGACAGUCUACUCAAAGCUCUGGAUAUAGUAGCAAUUACGCUUAUGCACCCAGCUCCUUAGGUGGAGCCAUGAUUGAUGGACAGUCAGC	0.448 ratio
AAUGAUCUCCUGUGCAACGUAGACGUCAGUGAUUUGUCUUUUCAUGAUUCCUUGGCUACUUUUGUUGCUAUCCUCAUCGCCCGUCAAUGUUUGCUCCUAGAAGACCUGAUUCGCUGUGCA	0.198 ratio
UUUCAGCAACUGGUCAAUUUUUCAGAAGGAGGACCGGGCUCUAAUUCCACUGGCAGUGAAGUAGCAUCAAUGUCCUCUCAACUUCCAGAUACACCUAACAGCAUGGUAGCCAGUCCUAUU	0.172 ratio
CAGUAACCCUGCAAGAUAUAAAGGAAGAGAAAAUAUGUUGUAUUAUGAUACUAUUGAAGAUGCCCUUGGUGGGGUACAAGAGGCUCAUUUUGAUGGACUUAUCUUUGUUCAUUCUGGAAU	0.269 ratio
GGAAGCCGAUCAGGAGAACAAGCUCUGGUGUCCAUUAGUUCAAGAAAUCCUGUGUUGAAGCAUAAUGUUGCUACAUAAGCCAGAGAAAGGAAGAGCGCUGCCAGGCCUGAUCGUUGGUAG	0.6 ratio
CUGUGGGGACUUGACAGCAAUGCUCAUCUCUCAUGCUUCAAUUUUUCUUUUCUUACUGUUAAUAGGAAAAAAAUCAACAUCUGUAAAUUAAGAAUACAGCAAUUAUCUGUACAGUACUGC	0.27 ratio
UGGGGUGGGGACUGGCCCGAGGCCCUGGCUAUCAGUCAGCGGUGGCAGCAGCAGGACAAGGCGGCCAACAAGGAGCUCACCUUCCUGCUAUUCUCCUGCCCGCACCGCCUGCGGGAGCAC	0.126 ratio
CUGCUUCCUACCAUUGGAAGUCCUUUCUGGCUUUUUGUGGAGUACUUUUUGCUGUAUGUAACUUUUAAGUAAUGUUUUGUUGGACUUUCUUCUGAGUCCUCUGAUUAAUAAUAUGUUUUC	0.375 ratio
CCCACCACAUCCUCCGGGCUCACUCCACUGAGUACCACUGCGCCAAGCAUGUUCUCUGCUGAUUUUCUGGACCCACAGGACCUGCCGCUGCCAUGGGACUAAGGUCACAGGUCUCUUGUU	0.22 ratio

Sample 2
Target: Ras GTPase-activating protein-binding protein 1, full length (G3BP1, Homo sapiens, UniProt Q13283)
UniProt Q13283, sequence (whole entry, looked up): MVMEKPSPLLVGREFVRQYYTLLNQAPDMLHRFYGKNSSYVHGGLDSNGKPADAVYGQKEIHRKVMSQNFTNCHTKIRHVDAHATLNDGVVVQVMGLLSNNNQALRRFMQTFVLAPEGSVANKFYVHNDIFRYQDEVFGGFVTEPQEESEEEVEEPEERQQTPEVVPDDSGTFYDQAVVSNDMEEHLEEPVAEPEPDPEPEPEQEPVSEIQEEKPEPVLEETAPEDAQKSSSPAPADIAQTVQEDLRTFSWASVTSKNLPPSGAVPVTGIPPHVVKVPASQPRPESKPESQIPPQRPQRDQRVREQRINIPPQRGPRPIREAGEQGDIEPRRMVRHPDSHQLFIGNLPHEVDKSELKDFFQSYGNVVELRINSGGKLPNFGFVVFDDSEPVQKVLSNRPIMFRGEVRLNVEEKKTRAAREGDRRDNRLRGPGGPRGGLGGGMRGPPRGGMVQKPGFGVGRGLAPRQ
Technique: RNA Bind-n-Seq
Form: RNA
Medium: in vitro
Concentration: 200 nM
Setting: whole 134-nt RNA, ends assumed
Together with: 150 mM LiCl
Reference: input library
Direction: higher = stronger binding
Library: 7-deaza-guanosine replaces G
Constant ends, left off below: GGGAGUUCUACAGUCCGACGAUC … UGGAAUUCUCGGGUGUCAAGG
Oligonucleotide	log2 enrichment
AAAAUAAGCCUAAGAAAGAAUUAAUUAAAGUUCUGAUUCAGAGGGGAUAUGAUUCGGAUCCUGUGAAGGCCUGGAAAGAAGCCCAGCAAA	-1.63
UCCUGUGCUACACAUCGUAUGUACCGAAUCGGGCCCCCCGGGCCCCCCGGCCCCCCGGGGAAAGUAUUAUGUUACGCCGUUCGGAUCUGC	-0.115
CAAGUCCUGUGCUACACAUCGUAUGUACCGAAUCGGGAAAGGGGAAAGGGAAAGGGAAAGUAUUAUGUUACGCCGUUCGGAUCUGCACUU	-0.332
AAGUCCUGUGCUACACAUCGUAUGUACCGAAUCGGAAAAAGGAAAAAGGAAAAAGGGAAAGUAUUAUGUUACGCCGUUCGGAUCUGCACU	-0.343
AAAGGAAGUAAAAACAAAUGGAAAUGCUUCGGAUAGUGGCAGGGGUGGGGGUUGCUAAGGAAAGGGUGGGAUGGGAGUGGGUAAAGAGUU	0.0217
AAGUCCUGUGCUACACAUCGUAUGUACCGAAUCGGGUUUUGGUUUUGGGUUUUGGGAAAGUAUUAUGUUACGCCGUUCGGAUCUGCACUU	-0.542
CUCAAGUCCUGUGCUACACAUCGUAUGUACCGAAUCGGUUUUUUUGGAGGAGGAAAGUAUUAUGUUACGCCGUUCGGAUCUGCACUUCCA	0.471
CUCAAGUCCUGUGCUACACAUCGUAUGUACCGAAUCGGGGUUGGGUUGGGUUGGAAAGUAUUAUGUUACGCCGUUCGGAUCUGCACUUCC	-0.0324
UGUUGCCGUGUGUCUCACCCUACCAUUUCAGAAAAAUGUUCGUUGGUGGCCUGAGCUGGGAUACUAGCAAAAAAGAUUUAAAAGACUAUU	-3.93
ACCAUGCAGGUGGGCAUCUUUGGGAAGUGGGGCAAGGGGGGGAUAGGAAAGGGGGUAACACUUUGGGAACAGGUGGUCCCAGGUCGUUUC	0.365
AAGUCCUGUGCUACACAUCGUAUGUACCGAAUCGGGUUUGGGAAAAAAAGGGAGGGAAAGUAUUAUGUUACGCCGUUCGGAUCUGCACUU	-0.0147

Sample 3
Target: Histone acetyltransferase KAT6A, winged helix 2, GST fusion (KAT6A, Homo sapiens, UniProt Q92794, residues 85-181)
Technique: protein binding microarray
Form: double-stranded DNA, one strand shown
Medium: in vitro
Concentration: not given
Setting: 8-mer, flanks averaged, mean of 2 arrays, mostly near background
Reference: not given
Direction: higher = stronger binding
Construct (chain): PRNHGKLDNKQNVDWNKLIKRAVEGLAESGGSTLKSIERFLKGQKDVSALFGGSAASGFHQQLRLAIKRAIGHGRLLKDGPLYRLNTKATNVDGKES
Oligonucleotide	E-score
CAATTTGA	0.131
CGTCATCC	-0.00977
AGGGCGGC	0.0196
CGGGCTAC	0.015
ATAGCGAG	-0.0136
AAGAGCGC	-0.0686
AGGGGACT	0.0796
CCCGGTAG	0.0197
AATGGGTA	0.0395
GTTTACTA	-0.0205
AGTGCCGA	0.117
CAGACTCG	-0.0352
ACTATCAA	-0.0684
CTCAATAA	-0.00814
GCCCACCC	0.145
TTCGGCAA	0.035
AGGGGGTA	0.00069
AGCACACG	0.0168
CGGTAATA	-0.111
TATCCTCA	0.0427
AGTGCTAA	-0.00268
CCCGAACC	0.15
AGTCTTTG	-0.194
ATCTGGTG	0.0777
CATTAGTA	-0.129

Sample 4
Target: RNA binding protein fox-1 homolog 2, RRM domain, GST-SBP tag (RBFOX2, Homo sapiens, UniProt O43251-10, residues 100-194)
Technique: RNA Bind-n-Seq
Form: RNA
Medium: in vitro
Concentration: 365 nM
Setting: natural RNA segment, single round, ends assumed
Reference: no-protein control
Direction: higher = stronger binding
Constant ends, left off below: GGGAGUUCUACAGUCCGACGAUC … UGGAAUUCUCGGGUGCCAA
Residues (chain): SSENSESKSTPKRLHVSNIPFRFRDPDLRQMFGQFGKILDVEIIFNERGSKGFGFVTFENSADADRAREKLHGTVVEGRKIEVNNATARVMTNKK
Oligonucleotide	RBNS enrichment (R)
GUGGAAAGUAUCAGAGUAAGGCUCUCCCCUCCAGAGCCCUGAGUUUCUUGGCUGCAUGAAGGUUUUCUUUAGAAUCAGAAUUGUAGCCAGUUUCUUUGGCCAGAAGGAUG	0.287
GACUUGAUGUUUUGGGAUUGUCCUUAUUUUAACCUCAAGGUCUCGCAUGGUGGGGCCCCUGACCAACCUACACAAGUUCCCUCCCACAAGUGGACAUCAGUGUCUUCUCU	0.723
CCAUAGCACUGCCCACAACCUGUUCUCACUGCUUAGCUCCCAGCUGGAUUAAAGACACCUGCUCAGGCGGGAGAGAGAGAGAGAGAGCGAGCUUUUACCUUGGAAAAGGU	0.332
GUUAUUGUAUUAAGUUUAUUCAGUUAAUUCACUUGAGGAACUAACCAGUUUUUACUUUCUGUCUAGAAUGAUGUACAUGUAGUAGAGUAAGCCAUAAUGCUCCCAAAGUG	0.345
CUUAGGCAAGUUCUUGGAGUCUGCUCCCAGAUGGCAUCGGCUCUGAGAUACCGGUUACUUCCCUGGUCCUGAGAGUCACCUGUGGUCACCCCUCUUCCCAGGCCUGACUU	0.299
UUUCUGGGAAGAGAUCAAAAUGGAGUCUCCUUACCAUGGACAAUACAUGCAAAGCAAUAUCUUGUUCAGGUUAGUACCCGCAAAACGGGACAUAGUAUGUGACAAUCUGC	0.401
UUCCUCUGCGGUCAUGUUGGCUUUCAUGCUGGAUCAAAUGUUUUACUUUCCCAGACUGGUGGCAUCUGAGUUCCCCAUCCUACCACUCUCACCCCACUUUCCUGCCCCAC	0.993
AUUUAUAACCUCAGACUUGGGCCCCCUGUUCUUCUCCAUUAACUUGAGUGUUCUGUGUGAGACCAACAGACAGAUGCCUCAAGGACUUUUACUUUUUAUUACAUAAAAAA	0.642
UGAAAAUUACACAUUUUAUAAUUUUUAGAUGAGAAAAUACCACUAGCAGAAUAGCUUUGUGCUAUUCCAGUAUAAGAUGAACUGUAAUAAUUUUUGACUUCCCUAUUUCA	0.357
UUGCACACUUGUUUGUACUGUUUUCUUUGAAAUAAAAGUGACUAAUUUUGUCGUACUCUAUCUGUAAGAGCAGAGCCAUAUGUAAUGUACCCACAAAUUCUCUCUUCCUC	0.567
UGAACGUGGAUUGUAUUUAAGACAUAAACAAAGACAUUGACAGCAAUUCAUGGUUCAAGUAUUAAGCAGUUCAUUCUACCAAGCUGUCACAGGUUUUCAGAGAAUUAUCU	0.521
UUUCUUUUGGCUUGGUUUGGACCACAGUCCUCUGCUACCCAGGGUUUUAGAGCCCCUGCUCUAGGAAACAGUUUAAGAAAUCAUUGGCCCCUUCCCAGCACAUUGAAUGG	1.39

Excerpt of the above (sample 4):
Oligonucleotide	RBNS enrichment (R)
UGAACGUGGAUUGUAUUUAAGACAUAAACAAAGACAUUGACAGCAAUUCAUGGUUCAAGUAUUAAGCAGUUCAUUCUACCAAGCUGUCACAGGUUUUCAGAGAAUUAUCU	0.521
AUUUAUAACCUCAGACUUGGGCCCCCUGUUCUUCUCCAUUAACUUGAGUGUUCUGUGUGAGACCAACAGACAGAUGCCUCAAGGACUUUUACUUUUUAUUACAUAAAAAA	0.642
CCAUAGCACUGCCCACAACCUGUUCUCACUGCUUAGCUCCCAGCUGGAUUAAAGACACCUGCUCAGGCGGGAGAGAGAGAGAGAGAGCGAGCUUUUACCUUGGAAAAGGU	0.332
UGAAAAUUACACAUUUUAUAAUUUUUAGAUGAGAAAAUACCACUAGCAGAAUAGCUUUGUGCUAUUCCAGUAUAAGAUGAACUGUAAUAAUUUUUGACUUCCCUAUUUCA	0.357
GACUUGAUGUUUUGGGAUUGUCCUUAUUUUAACCUCAAGGUCUCGCAUGGUGGGGCCCCUGACCAACCUACACAAGUUCCCUCCCACAAGUGGACAUCAGUGUCUUCUCU	0.723
